Results pooled from the literature.
A part holds a random share of what one study measured. Changes are numbered by the printed parent chain.

Set 1
Target: Interferon regulatory factor 3, full length, phosphomimetic (IRF3, Homo sapiens, UniProt Q14653, residues 1-427, S386D/S396D/S398D/S402D/T404D/S405D)
Method: protein-binding microarray
Molecule type: double-stranded DNA, one strand shown
Medium: in vitro
Concentration: 2540 nM top
Notes: 60-bp whole probe
Together with: salmon DNA 0.4 mg/ml
Baseline: random background probes
Reading: higher = stronger binding
Shared flanks, not repeated: GCCTAGCAC … GTCTTGATTCGCTTGACGCTGCTG
Residues (chain): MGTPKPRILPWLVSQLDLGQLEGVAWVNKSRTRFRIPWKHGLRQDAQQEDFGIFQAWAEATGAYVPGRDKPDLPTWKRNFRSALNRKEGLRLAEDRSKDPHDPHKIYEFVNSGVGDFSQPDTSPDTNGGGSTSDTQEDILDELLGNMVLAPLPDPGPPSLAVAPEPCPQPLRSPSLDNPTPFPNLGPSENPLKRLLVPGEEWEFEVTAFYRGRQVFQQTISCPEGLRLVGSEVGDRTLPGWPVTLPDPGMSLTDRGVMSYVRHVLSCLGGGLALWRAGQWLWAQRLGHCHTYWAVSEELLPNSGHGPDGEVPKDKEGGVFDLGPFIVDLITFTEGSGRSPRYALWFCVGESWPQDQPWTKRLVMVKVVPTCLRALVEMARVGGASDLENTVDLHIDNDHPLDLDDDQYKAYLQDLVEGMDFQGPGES
Sequence	fitted relative affinity
TAAGGACTGGGGTTTCGGTTAGTGCTA	2.65 z-score
TTTTTTTTTGGAATGTCTTCGTGCTAG	1.07 z-score
GCCGGTTCCGGTTTCGGGACGTGCTAG	6.35 z-score
GACGGTATCCTCCTGCTGACGTGCTAG	1.76 z-score
GACGGCTTCCTACTGCTGACGTGCTAG	-0.336 z-score
TCACTTATTGCTTCCTCACTGTGCTAG	0.442 z-score
TTAGGTATCGACACTGGGTTAGTGCTA	0.143 z-score
TTAGGTTTCGGTTTCGGGTAGTGCTAG	11.4 z-score
TTAGGTTTCGGACTGGGTGAGTGCTAG	4.42 z-score
GACGGTTTAGGGTTTCGGGACGTGCTA	1.53 z-score
TTAGGACTGCTTCTCCGTTAGTGCTAG	-0.246 z-score
GAGGGTTTCCTTTTCCTGACGTGCTAG	9.85 z-score
TTAGGACTGCTGCTCCTTTAGTGCTAG	-0.442 z-score
TTAGGACTGCTTTTCATTTAGTGCTAG	0.873 z-score
GCCGGACTGGACACTGGGGACGTGCTA	-0.187 z-score
TTCGGTATCCTTATCCTTTAGTGCTAG	5.84 z-score
GACGGTTTCGACCCTGGGGACGTGCTA	2.35 z-score
TCAGTTTTTGCTTTCTTACTGTGCTAG	2.16 z-score
GACGGTATCGGTATCGGGAAGTGCTAG	4.58 z-score

Set 2
Target: Prothrombin, mature alpha-thrombin (F2, Homo sapiens, UniProt P00734)
Method: aptamer microarray, sandwich
Molecule type: DNA with 2'F-ANA
Medium: in vitro
Concentration: 200 nM
Notes: whole 15-mer aptamer, many near background
Together with: Cy3 exosite-II aptamer, 400 nM
Reading: higher = stronger binding
Sequence: GGTTGGTGTGGTTGG
Modification	mean fluorescence intensity [a.u.]
2'F-ANA at 2 6 7 8 9 13 14 15	123
2'F-ANA at 2 3 5 7 8 9 12 14	72.3
2'F-ANA at 1 4 7 8 9 10 14	245
2'F-ANA at 1 2 3 4 5 9 10 13	46.9
2'F-ANA at 3 4 5 7 8 11 14	64.6
2'F-ANA at 3 6 7 8 10 13 15	506
2'F-ANA at 2 3 5 6 10 11 14 15	49.7
2'F-ANA at 4 5 6 10 11 13 14	46.2
2'F-ANA at 1 4 6 10 12 14	47.9
2'F-ANA at 3 6 7 8 14	644
2'F-ANA at 1 3 4 7 9 13 14 15	78.2
2'F-ANA at 2 5 6 7 9 10 11 13 14	47.5
2'F-ANA at 2 5 7 8 9 10 11 12 13	50.5
2'F-ANA at 3 4 5 6 7 8 11 13 15	106
2'F-ANA at 2 6 8 12 13 14	172
2'F-ANA at 2 4 5 9 11 13 14	45
2'F-ANA at 1 2 3 6 7 10 11 12 13	133
2'F-ANA at 2 5 7 8 9 10 11 13	48.7
2'F-ANA at 1 10 13 14	48.7

Set 3
Target: RNA binding protein fox-1 homolog 2, RRM domain, GST-SBP tag (RBFOX2, Homo sapiens, UniProt O43251-10, residues 100-194)
Method: RNA Bind-n-Seq
Molecule type: RNA
Medium: in vitro
Concentration: 365 nM
Notes: natural RNA segment, single round, ends assumed
Baseline: no-protein control
Reading: higher = stronger binding
Shared flanks, not repeated: GGGAGUUCUACAGUCCGACGAUC … UGGAAUUCUCGGGUGCCAA
Residues (chain): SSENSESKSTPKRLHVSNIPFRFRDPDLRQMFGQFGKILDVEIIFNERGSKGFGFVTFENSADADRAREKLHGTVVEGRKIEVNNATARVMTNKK
Sequence	RBNS enrichment (R)
GGAGAGUGACAGCAGCUAUAGGGUGGACUCAGGAGCUGUCAGUCUUAACAGCUGAGCCUUGGACCCCACUGCCUCUGAGUCUACAUUCUGGCAGGCAGUCCCAUGCUCUG	0.458
CCCAGCCUUGUUACCUCACUCCUGCUCCAGCCAUUGUGAUGGGCUCAGCCAGCUCCCUGUUCUGAUGUGCCCUGCAACAACAGCUCAGGGGUCUUGUGACUUGGAGAGGU	0.385
CAGUUCGGGUGUUCCAUUGCACCCCUGUGCAGAUCUUUCCAGACUUGGCAACUUUACUUGGCUGAAUGAACUCCAAUCGGAAACAAUUGCUUCAAGCCAGUUUUUCCUUU	0.318
CACGCUUUUUCUUUUUCUCUCUUUGGCAUUGUUCAUUUUGAGGUAGACCAUAGACUCUAGCCCAGGCUGAUCUGGAGCUUACUGUAUAGCCCAGGCUUUGAACUGGCCUU	0.277
UUUCAGAAGGCCUCGCUCCUGACCUAAUUUCUCAAAGCUCCGGUAGUUCUAGACCCCUCCAAUUUCUCAUCUGGUUGCAAGGCUUAUUUUUCUUUUGUACUUUCCUAUAG	0.765
GUGAUGCAAAUUGUGUGCCCUCUGGUUCAGCUGAAACAGUCCUGGACUUUCAAAAACCUUGAAUAAGUCUCCCACAGUUGUAUAAAUUGGACAAUUUAGGAAUUUUAAAC	0.645
CUCACUUUCUGCUGUGUGGGCGGCCACAUAAAAAGGCAAUUUUAGUGUAUUAAUCAUAGAUUAUUAUAAACUAUAAACUUAAGGGCAAGGAAUUUAUUACAAUGUAUCUU	0.404
GGAGGCAGGUUAGGUAGUGCAGGGGCCAUUGGCAGCAGGGGCUUUGGAGUCAGACAGGCCUGGCACAGGCACUGGAGCUACUGAAUGAAGCUCUAGCUUAGCCUUCUCAG	0.573

Set 4
Target: CCNB2, cyclin fold, Cln2 fusion (human)
Method: yeast growth competition, sequencing
Medium: yeast
Notes: weak parent motif
Baseline: not given
Reading: higher = stronger binding
Parent: ITGB3BP docking peptide (human); MPVKRSLKLDGLL
Change	normalised enrichment score
K8A	0.539
R5K L9F	0.206
K4A	0.48
L9A	0.264
R5A	0.0973
L13A	0.111
R5A L7A	0.405
R5K	0.0482
G11A	0.493
P2A	0.569

A few entries again (set 1):
Sequence	fitted relative affinity
TCACTTATTGCTTCCTCACTGTGCTAG	0.442 z-score
TTAGGTATCGACACTGGGTTAGTGCTA	0.143 z-score
TTAGGTTTCGGTTTCGGGTAGTGCTAG	11.4 z-score
TTAGGTTTCGGACTGGGTGAGTGCTAG	4.42 z-score
GACGGTTTAGGGTTTCGGGACGTGCTA	1.53 z-score
